Results from different studies.
Protocols differ between the studies behind these lines. ± gives the spread as reported.

| Molecule | test | test system | setting | pKa |
| --- | --- | --- | --- | --- |
| ksi D40Q/D103N (Pseudomonas putida) | UV-vis, item: Tyr57 | – | 25 °C | 7.9 |
| nuc G50F/V51N/P117G/H124L/S128A/del44-49/L38D/E122Q (Staphylococcus aureus) | NMR, item: His8 | – | 298 K, KCl 100 mM, numbering of the source | 6.5 |
| emrE E14D (Escherichia coli) | NMR, item: His110 | – | 45 °C, NaCl 20 mM | 7.3 |
| N-acetyl-L-histidine methylamide, N-acetyl, C-terminal N-methylamide | NMR, item: His1 | – | 25 °C, Na2SO4 20 mM | 6.52 |
| ksi Y32A/D40N/D103N (Pseudomonas putida) | UV-vis, item: Tyr57 | – | 25 °C | > 10 |
| Trxr-1 del484-491 (Drosophila melanogaster) | UV-vis, item: Cys62 | – | NaCl 300 mM, numbering of the source, with: NADPH 250 µM | 5.95 |
| ksi D40N/M105A (Pseudomonas putida) | UV-vis, item: Tyr57 | – | 25 °C | 6.3 |
| PCSK1 propeptide domain (Homo sapiens, UniProt P29120) | mass spectrometry, item: His67 | – | apparent, histidine H/D exchange, pepsin digest | 6.31 |
| CISD1 K55E (Homo sapiens) | UV-vis, item: His87 | – | NaCl 100 mM, cluster oxidised | 9.6 |
| nuc G50F/V51N/P117G/H124L/S128A/del44-49/L38D (Staphylococcus aureus) | NMR, item: His8 | – | 298 K, KCl 100 mM, numbering of the source | 6.5 |
| ketosteroid isomerase D40N (Pseudomonas putida) | UV-vis, item: Tyr57 | – | apparent, H2O, apo enzyme | 5.78 |
| nuc G50F/V51N/P117G/H124L/S128A/del44-49/L38E/E122Q (Staphylococcus aureus) | NMR, item: His8 | – | 298 K, KCl 100 mM, numbering of the source | 6.4 |
| WT1 zinc finger 4 (Homo sapiens, UniProt P19544) | NMR, item: His27 | – | 288 K, KCl 10 mM, apo, unfolded, reduced, numbering of the source | 6.9 |
| CRYGD P23T (Homo sapiens) | NMR, item: His15 | – | 25 °C, numbering of the source | 6.51 |
| proteorhodopsin, retinal (uncultured gamma-proteobacterium EBAC31A08, UniProt Q9F7P4) | UV-vis, item: Asp97 | E. coli membranes | NaCl 100 mM, not purified, oligomeric | 6.7 |
| nuc G50F/V51N/P117G/H124L/S128A/del44-49/L38K (Staphylococcus aureus) | NMR, item: His121 | – | 298 K, KCl 100 mM, numbering of the source | 5.6 |

| Molecule | test | test system | setting | pKa |
| --- | --- | --- | --- | --- |
| CISD1 soluble cytoplasmic domain (Homo sapiens, UniProt Q9NZ45) | optical potentiometric redox titration, item: His87 | – | cluster reduced | > 11.5 |
| PRL (Homo sapiens, UniProt P01236) | NMR, item: His27 | – | 35 °C, 25 mM NaCl, microscopic; neighbours unprotonated, numbering of the source | 6.64 |
| ksi D40N/D103N (Pseudomonas putida) | UV-vis, item: Tyr57 | – | 25 °C | 7.2 |
| ORF56 (Sulfolobus islandicus, UniProt Q54323) | NMR, item: Lys12 | – | free native homodimer, low salt | 10.8 |
| UBE2G2 (Homo sapiens, UniProt P60604) | NMR, item: His94 | – | 295 K | 6.25 |
| nuc G50F/V51N/P117G/H124L/S128A/del44-49/L38E (Staphylococcus aureus) | NMR, item: His121 | – | 298 K, KCl 100 mM, numbering of the source | 5.7 |
| ksi D40L/F56A (Pseudomonas putida) | UV-vis, item: Tyr57 | – | 25 °C | 7.5 |
| ahpC (Salmonella typhimurium, UniProt P0A251) | UV-vis, item: Cys46 | – | ammonium sulfate 100 mM, numbering of the source | 5.84 |
| PBP1 mature (Amyelois transitella) | NMR, item: His95 | – | 25 °C, free protein; not delipidated | 6 |
| ksi D40E/F56A/D103N (Pseudomonas putida) | UV-vis, item: Tyr57 | – | 25 °C | 9.8 |
| CRYGD (Homo sapiens, UniProt P07320) | NMR, item: His22 | – | 25 °C, numbering of the source | 5.4 |
| rnpA F107W (Bacillus subtilis) | NMR, item: His22 | – | 25 °C, 20 ± 1 mM, unfolded state, no sulfate, numbering of the source | 5.99 |
| ksi D40S/D103N (Pseudomonas putida) | UV-vis, item: Tyr57 | – | 25 °C | 8.2 |
| iscU apo (Escherichia coli, UniProt P0ACD4) | NMR titration, item: His105 | – | 25 °C, NaCl 150 mM, D-state, averaged, apo | 6.5 |
| ksi D40I/D103N (Pseudomonas putida) | UV-vis, item: Tyr57 | – | 25 °C | 8.5 |
| nuc G50F/V51N/P117G/H124L/S128A/del44-49/E122Q (Staphylococcus aureus) | NMR, item: His8 | – | 298 K, KCl 100 mM, numbering of the source | 6.5 |

A few entries again:
| Molecule | test | test system | setting | pKa |
| --- | --- | --- | --- | --- |
| CISD1 soluble cytoplasmic domain (Homo sapiens, UniProt Q9NZ45) | optical potentiometric redox titration, item: His87 | – | cluster reduced | > 11.5 |
| nuc G50F/V51N/P117G/H124L/S128A/del44-49/L38D/E122Q (Staphylococcus aureus) | NMR, item: His8 | – | 298 K, KCl 100 mM, numbering of the source | 6.5 |
